Assay results pooled from the literature.
Numbered parts are unrelated; each lists some results of a single study.
Chain of UniProt Q06187 (whole entry, looked up): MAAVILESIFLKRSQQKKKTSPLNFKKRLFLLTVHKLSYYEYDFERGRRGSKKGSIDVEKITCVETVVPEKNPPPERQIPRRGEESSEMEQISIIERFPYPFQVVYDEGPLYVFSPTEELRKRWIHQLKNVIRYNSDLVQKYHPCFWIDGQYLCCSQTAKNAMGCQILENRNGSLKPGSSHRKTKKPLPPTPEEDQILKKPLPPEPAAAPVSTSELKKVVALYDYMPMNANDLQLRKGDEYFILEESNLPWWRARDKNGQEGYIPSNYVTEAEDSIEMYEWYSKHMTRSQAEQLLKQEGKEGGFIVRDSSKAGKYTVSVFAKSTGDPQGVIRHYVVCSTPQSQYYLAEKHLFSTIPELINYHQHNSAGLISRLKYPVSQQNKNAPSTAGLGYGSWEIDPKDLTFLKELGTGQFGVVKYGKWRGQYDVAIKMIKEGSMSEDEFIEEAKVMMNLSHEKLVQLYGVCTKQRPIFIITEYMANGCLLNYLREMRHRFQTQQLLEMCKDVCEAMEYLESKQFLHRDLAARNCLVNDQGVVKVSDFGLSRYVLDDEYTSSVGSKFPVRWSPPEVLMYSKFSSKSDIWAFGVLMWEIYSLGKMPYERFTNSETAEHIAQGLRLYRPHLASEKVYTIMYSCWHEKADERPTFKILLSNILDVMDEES
Chain of UniProt P08922 (whole entry, looked up): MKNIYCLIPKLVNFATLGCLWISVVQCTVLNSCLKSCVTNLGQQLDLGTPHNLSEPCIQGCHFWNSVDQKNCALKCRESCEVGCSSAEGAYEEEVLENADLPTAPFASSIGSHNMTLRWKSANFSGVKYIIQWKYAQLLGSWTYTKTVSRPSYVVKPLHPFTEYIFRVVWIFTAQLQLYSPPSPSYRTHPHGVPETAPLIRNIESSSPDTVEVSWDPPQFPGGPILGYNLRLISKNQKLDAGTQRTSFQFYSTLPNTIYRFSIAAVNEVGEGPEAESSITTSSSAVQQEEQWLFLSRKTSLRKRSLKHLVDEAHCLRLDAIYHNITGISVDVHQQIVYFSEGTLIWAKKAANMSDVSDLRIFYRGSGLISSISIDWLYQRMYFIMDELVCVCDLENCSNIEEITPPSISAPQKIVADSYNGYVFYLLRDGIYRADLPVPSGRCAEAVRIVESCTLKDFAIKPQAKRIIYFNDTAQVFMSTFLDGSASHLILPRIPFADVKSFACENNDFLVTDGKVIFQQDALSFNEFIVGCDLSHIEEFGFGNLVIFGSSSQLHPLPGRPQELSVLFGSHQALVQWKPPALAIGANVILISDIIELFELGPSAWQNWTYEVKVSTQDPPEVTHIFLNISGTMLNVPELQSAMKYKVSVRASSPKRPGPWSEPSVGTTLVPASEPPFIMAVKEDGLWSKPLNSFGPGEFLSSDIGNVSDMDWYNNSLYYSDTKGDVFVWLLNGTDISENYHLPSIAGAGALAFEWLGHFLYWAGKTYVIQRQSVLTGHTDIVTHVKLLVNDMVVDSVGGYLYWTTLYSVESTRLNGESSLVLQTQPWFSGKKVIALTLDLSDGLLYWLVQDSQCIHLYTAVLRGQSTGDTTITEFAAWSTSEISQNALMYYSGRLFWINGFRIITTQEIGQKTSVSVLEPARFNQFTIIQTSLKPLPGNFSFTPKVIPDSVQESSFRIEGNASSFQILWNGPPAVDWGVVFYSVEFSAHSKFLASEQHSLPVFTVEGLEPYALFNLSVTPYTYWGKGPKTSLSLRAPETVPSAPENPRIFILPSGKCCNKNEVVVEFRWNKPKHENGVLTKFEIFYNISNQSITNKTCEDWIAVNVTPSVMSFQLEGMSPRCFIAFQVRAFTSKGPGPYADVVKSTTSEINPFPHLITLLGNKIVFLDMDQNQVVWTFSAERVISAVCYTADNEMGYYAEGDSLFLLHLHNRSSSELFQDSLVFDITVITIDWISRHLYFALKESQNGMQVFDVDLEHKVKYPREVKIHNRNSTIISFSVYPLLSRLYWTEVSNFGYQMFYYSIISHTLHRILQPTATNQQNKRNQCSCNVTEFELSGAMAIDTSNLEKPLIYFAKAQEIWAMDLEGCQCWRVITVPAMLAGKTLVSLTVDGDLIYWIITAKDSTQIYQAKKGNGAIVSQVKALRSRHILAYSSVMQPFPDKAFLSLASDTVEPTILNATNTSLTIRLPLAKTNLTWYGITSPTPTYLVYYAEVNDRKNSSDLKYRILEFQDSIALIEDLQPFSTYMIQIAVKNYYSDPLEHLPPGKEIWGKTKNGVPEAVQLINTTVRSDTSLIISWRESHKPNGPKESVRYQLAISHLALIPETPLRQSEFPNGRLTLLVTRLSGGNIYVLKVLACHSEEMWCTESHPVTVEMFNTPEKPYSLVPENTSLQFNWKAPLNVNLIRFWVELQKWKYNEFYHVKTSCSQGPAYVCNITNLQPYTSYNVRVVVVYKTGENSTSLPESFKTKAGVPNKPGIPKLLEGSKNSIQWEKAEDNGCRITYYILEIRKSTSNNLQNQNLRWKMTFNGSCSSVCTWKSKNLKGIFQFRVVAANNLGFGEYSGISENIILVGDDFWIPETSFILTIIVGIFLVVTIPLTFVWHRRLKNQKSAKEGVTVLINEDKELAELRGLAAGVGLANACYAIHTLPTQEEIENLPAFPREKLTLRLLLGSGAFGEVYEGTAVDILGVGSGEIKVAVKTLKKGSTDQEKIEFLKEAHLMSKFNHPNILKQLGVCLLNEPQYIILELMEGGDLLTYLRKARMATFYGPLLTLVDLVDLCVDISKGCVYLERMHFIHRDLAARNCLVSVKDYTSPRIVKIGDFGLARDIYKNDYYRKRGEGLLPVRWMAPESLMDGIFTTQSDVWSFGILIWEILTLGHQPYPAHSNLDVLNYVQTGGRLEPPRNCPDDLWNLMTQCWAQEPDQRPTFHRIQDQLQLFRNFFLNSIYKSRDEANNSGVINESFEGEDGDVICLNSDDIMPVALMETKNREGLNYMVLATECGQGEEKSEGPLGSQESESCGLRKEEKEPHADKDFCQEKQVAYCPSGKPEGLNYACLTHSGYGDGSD
Chain of UniProt Q8WTQ7 (whole entry, looked up): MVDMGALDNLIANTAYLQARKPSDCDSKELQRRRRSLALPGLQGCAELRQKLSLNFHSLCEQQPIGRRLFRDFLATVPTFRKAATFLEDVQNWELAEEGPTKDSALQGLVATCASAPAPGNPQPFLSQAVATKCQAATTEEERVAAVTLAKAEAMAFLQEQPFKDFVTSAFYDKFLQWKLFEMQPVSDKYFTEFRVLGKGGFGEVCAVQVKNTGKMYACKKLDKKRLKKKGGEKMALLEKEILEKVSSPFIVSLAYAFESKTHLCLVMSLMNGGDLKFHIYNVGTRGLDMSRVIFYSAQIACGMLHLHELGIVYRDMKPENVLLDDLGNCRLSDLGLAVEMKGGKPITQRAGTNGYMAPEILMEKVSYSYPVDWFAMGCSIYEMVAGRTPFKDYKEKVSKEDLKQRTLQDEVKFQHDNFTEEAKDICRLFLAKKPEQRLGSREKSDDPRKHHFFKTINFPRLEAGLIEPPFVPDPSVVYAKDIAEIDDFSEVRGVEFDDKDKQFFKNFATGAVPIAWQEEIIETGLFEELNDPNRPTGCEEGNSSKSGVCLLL
Chain of UniProt Q8WXR4 (whole entry, looked up): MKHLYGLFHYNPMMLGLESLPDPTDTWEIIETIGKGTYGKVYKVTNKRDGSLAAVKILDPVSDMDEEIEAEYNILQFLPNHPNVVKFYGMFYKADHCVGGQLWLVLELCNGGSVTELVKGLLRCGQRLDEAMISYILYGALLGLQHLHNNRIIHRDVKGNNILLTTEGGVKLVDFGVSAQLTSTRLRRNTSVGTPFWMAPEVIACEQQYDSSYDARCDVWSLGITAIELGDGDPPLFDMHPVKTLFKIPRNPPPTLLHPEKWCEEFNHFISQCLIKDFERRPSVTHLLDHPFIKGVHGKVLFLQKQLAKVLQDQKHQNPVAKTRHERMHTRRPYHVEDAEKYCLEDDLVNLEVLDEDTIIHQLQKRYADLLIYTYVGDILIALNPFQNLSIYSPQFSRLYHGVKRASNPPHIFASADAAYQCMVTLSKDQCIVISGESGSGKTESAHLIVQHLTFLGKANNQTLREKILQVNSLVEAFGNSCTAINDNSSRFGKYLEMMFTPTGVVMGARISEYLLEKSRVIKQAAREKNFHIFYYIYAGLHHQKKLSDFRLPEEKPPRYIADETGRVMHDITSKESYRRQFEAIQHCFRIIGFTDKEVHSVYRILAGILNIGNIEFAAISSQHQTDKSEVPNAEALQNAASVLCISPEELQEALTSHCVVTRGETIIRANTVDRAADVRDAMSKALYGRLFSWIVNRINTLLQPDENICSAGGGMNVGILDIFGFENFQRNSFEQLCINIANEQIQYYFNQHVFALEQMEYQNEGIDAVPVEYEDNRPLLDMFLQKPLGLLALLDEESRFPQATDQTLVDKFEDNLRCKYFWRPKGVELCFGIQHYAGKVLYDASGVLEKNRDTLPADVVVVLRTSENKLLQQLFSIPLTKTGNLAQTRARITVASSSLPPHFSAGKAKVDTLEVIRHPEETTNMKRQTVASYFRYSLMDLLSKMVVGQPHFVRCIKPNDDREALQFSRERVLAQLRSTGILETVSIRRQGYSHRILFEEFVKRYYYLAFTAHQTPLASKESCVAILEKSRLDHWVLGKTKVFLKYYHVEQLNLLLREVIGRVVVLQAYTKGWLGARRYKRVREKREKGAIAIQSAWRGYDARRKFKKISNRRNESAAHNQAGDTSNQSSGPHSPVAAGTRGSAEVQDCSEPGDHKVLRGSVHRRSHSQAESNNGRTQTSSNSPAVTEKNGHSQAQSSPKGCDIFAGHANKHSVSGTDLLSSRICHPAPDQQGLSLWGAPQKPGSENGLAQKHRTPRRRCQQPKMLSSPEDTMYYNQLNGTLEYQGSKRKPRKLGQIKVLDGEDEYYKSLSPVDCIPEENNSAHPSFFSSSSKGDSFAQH

Block 1 — species: human; sample: microsomes or S9; tested at: 2 µM; time: 0.5 h
`Cn1ncc2c(NNC(=O)c3ccc(O)cc3)ncnc21` has a remaining compound of 87.3%.
`CC(C)(C)OC(=O)N[C@@H](CC(=O)N1CCCCCN1C(=O)C[C@@H](Cc1cc(F)c(F)cc1F)NC(=O)OC(C)(C)C)Cc1cc(F)c(F)cc1F` gave a remaining compound of < 1%.
With `CN(C)C[C@H]1CC[C@H](Nc2ncc3ccc(=O)n(C4CCCCCC4)c3n2)CC1` the remaining compound was 18.7%.
The remaining compound of `O=C(NCC1CCCO1)c1ccc(NC(=O)c2nc(-n3cnnc3)ccc2Br)cc1` (stereo not drawn) is reported as 92.4%.
With `COc1ccc(-c2c(-c3ccccc3)nn(-c3cccc4ccccc34)c2N(C)C)cc1OC` the remaining compound was 33.4%.
For `COc1ccc(-c2c(-c3ccccc3)nn(-c3ccc(Cl)cc3Cl)c2N(C)C)cc1OC`, the remaining compound was 3.73%.
`O=C1Nc2cc3ccc(OCc4ccccc4)cc3c3cccc1c23` has a remaining compound of 50.6%.
For `Clc1ccc(C2=NOC(COc3cccc(Cl)c3Cl)CC2n2cncn2)cc1` (stereo not drawn), the remaining compound was 74%.
`CN(C)C[C@@H]1CN(S(C)(=O)=O)C[C@H]1NC(=O)c1cccn1C` has a remaining compound of > 100%.
The remaining compound of `Cc1cc2c(cc1C(=O)N=C(N)N)C(Br)=CC(C)(C)O2` is reported as 62%.
`CCOc1cc(=O)n2c(c1C(=O)NCc1ccc(F)cc1Cl)CCCC2` gave a remaining compound of 1.28%.
`Cc1cc(=O)n(C2CCNCC2)nc1-c1ccccc1` has a remaining compound of 70.8%.
For `Cc1cc(=O)[nH]c(SCC(=O)c2cc(C)n(CC3CCCO3)c2C)c1C#N` (stereo not drawn), the remaining compound was 26.8%.
`COc1ccc(OC)c(NC(=O)c2cc3sccc3n2Cc2ccccc2)c1` gave a remaining compound of 61%.

Block 2 — method: competition with immobilised ligand; tested at: 1 µM
Structure (SMILES): Nc1cnc(N2CCc3cc(S(=O)(=O)Nc4c(F)cc(Cl)cc4F)cc(N4CCCC4=O)c32)nc1
It gave 99% for remaining binding (RET (Homo sapiens, UniProt P07949, V804L); cell-free assay).
For ITK (Homo sapiens, UniProt Q08881); cell-free assay: remaining binding read 100%.
Tyrosine-protein kinase ABL1, phosphorylated (ABL1, Homo sapiens, UniProt P00519, T315I); cell-free assay — remaining binding: 98%.
The remaining binding was 83% (SIK3 (Homo sapiens, UniProt Q9Y2K2); cell-free assay).
For TLK1 (Homo sapiens, UniProt Q9UKI8); cell-free assay: remaining binding read 100%.
The remaining binding was 78% (EPHA3 (Homo sapiens, UniProt P29320); cell-free assay).
It gave 78% for remaining binding (TAOK2 (Homo sapiens, UniProt Q9UL54); cell-free assay).
For ROS1 (Homo sapiens, UniProt P08922); cell-free assay: remaining binding read 99%.
For GRK7 (Homo sapiens, UniProt Q8WTQ7); cell-free assay: remaining binding read 99%.
It gave 100% for remaining binding (TSSK1B (Homo sapiens, UniProt Q9BXA7); cell-free assay).
For STK33 (Homo sapiens, UniProt Q9BYT3); cell-free assay: remaining binding read 80%.
It gave 98% for remaining binding (PDPK1 (Homo sapiens, UniProt O15530); cell-free assay).
The remaining binding was 100% (BTK (Homo sapiens, UniProt Q06187); cell-free assay).
It gave 89% for remaining binding (RIOK2 (Homo sapiens, UniProt Q9BVS4); cell-free assay).
It gave 84% for remaining binding (MAPK9 (Homo sapiens, UniProt P45984); cell-free assay).
Myosin-IIIb (MYO3B, Homo sapiens, UniProt Q8WXR4); cell-free assay — remaining binding: 100%.
Tyrosine-protein kinase ABL1, phosphorylated (ABL1, Homo sapiens, UniProt P00519, E255K); binding — remaining binding: 85%.
It gave 100% for remaining binding (PRKAA2 (Homo sapiens, UniProt P54646); cell-free assay).
MAST1 (Homo sapiens, UniProt Q9Y2H9); cell-free assay — remaining binding: 97%.

Block 3 — organism: Sarcocystis neurona; read-out: parasite activity; tested at: 10 µM; time: 96 h
Under activity class, `CC(c1cc2ccccc2s1)N(O)C(N)=O` (stereo not drawn) is recorded as “inactive”.
`COCCOC(=O)C1=C(C)NC(C)=C(C(=O)OC(C)C)C1c1cccc([N+](=O)[O-])c1` (stereo not drawn): activity class “inactive”.
`OCCN1CCN(CCCN2c3ccccc3Sc3ccc(C(F)(F)F)cc32)CC1`: activity class “inactive”.
`CC(C)NCC(O)COc1ccc(CC(N)=O)cc1` (stereo not drawn) — result for activity class: “inactive”.
`C[C@H]1C[C@@H]2[C@H]([C@@H](O)C[C@@]3(C)[C@H]2CC[C@]3(O)C(=O)CO)[C@@]2(C)C=CC(=O)C=C12`: activity class “inactive”.
`C#C[C@]1(O)CC[C@H]2[C@@H]3CCc4cc(O)ccc4[C@H]3CC[C@@]21C`: activity class “inactive”.
`CCn1cc(C(=O)O)c(=O)c2ccc(C)nc21`: activity class “inactive”.
`C[C@@H](c1ncncc1F)[C@](O)(Cn1cncn1)c1ccc(F)cc1F`: activity class “inactive”.
Under activity class, `COCc1c(C(C)C)nc(C(C)C)c(/C=C/[C@@H](O)C[C@@H](O)CC(=O)O)c1-c1ccc(F)cc1` is recorded as “inactive”.
`COc1c(N2CCNC(C)C2)c(F)cc2c(=O)c(C(=O)O)cn(C3CC3)c12` (stereo not drawn): activity class “inactive”.
`Cc1cnc(C(=O)NCCc2ccc(S(=O)(=O)NC(=O)NC3CCCCC3)cc2)cn1`: activity class “inactive”.
For `CN(C)CCCC1(c2ccc(F)cc2)OCc2cc(C#N)ccc21` (stereo not drawn), activity class read “inactive”.
`C[C@]12CCC(=O)C=C1CC[C@@H]1[C@@H]2[C@@H](O)C[C@@]2(C)[C@H]1CC[C@]2(O)C(=O)CO`: activity class “inactive”.
`Cc1ccnc2c1NC(=O)c1cccnc1N2C1CC1`: activity class “inactive”.
For `O=C1N[C@H](C(=O)O)CS1`, activity class read “inactive”.
`COc1c2occc2cc2ccc(=O)oc12`: activity class “inactive”.
Under activity class, `OCc1cc(C(O)CNCCCCCCOCCCCc2ccccc2)ccc1O` (stereo not drawn) is recorded as “inactive”.

Block 4 — read-out: enzyme activity; mode: inhibitor; tested at: 0.5 µM; relative to: control
Target: Serine/threonine-protein kinase Sgk3 (SGK3, Homo sapiens, UniProt Q96BR1)
Residues (Q96BR1 1-496): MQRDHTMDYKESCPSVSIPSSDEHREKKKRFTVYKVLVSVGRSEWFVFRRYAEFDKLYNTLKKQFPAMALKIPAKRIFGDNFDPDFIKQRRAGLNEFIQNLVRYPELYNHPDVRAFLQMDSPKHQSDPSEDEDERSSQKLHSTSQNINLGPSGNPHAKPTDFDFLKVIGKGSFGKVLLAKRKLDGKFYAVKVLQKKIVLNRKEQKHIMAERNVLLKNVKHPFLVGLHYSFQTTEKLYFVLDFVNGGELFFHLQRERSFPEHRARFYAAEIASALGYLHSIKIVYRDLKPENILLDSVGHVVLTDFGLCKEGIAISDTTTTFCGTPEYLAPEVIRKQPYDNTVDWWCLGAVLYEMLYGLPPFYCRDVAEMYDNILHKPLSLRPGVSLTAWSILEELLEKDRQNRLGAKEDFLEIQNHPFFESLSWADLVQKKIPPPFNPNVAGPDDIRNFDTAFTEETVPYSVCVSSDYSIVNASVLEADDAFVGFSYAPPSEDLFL
With `Cc1ccc(NC2=CC(=O)c3sc(C)nc3C2=O)cc1` the remaining activity was 95.2%.
For `COc1cc(Nc2c(C#N)cnc3cc(OCCCN4CCN(C)CC4)c(OC)cc23)c(Cl)cc1Cl`, the remaining activity was 94.4%.
The remaining activity of `Nc1nccc(-c2c(-c3ccc(F)cc3)ncn2C2CCNCC2)n1` is reported as 97.5%.
`Cc1cc(Nc2nc(-c3ccccc3)nc3ccccc23)n[nH]1` gave a remaining activity of 104%.
`COc1ccc(S(=O)(=O)N(CCO)c2ccccc2CN(C)CC=Cc2ccc(Cl)cc2)cc1` gave a remaining activity of 106%.
`Oc1ccc(Nc2nc(-c3ccc(Cl)cc3)cs2)cc1` has a remaining activity of 98%.
The remaining activity of `CSc1nc(-c2ccnc(N[C@@H](C)c3ccccc3)c2)c(-c2ccc(F)cc2)[nH]1` (racemic) is reported as 103%.
`CC[n+]1c(/C=C/N(C)c2ccccc2)n(-c2ccccc2)c2ccc(-c3nc4ccccc4s3)cc21` has a remaining activity of 102%.
The remaining activity of `CCc1[nH]c(-c2ccc(OC)cc2)nc1-c1ccncc1` is reported as 99.3%.
For `CC(C)(C)n1nc(Cc2cccc3ccccc23)c2c(N)ncnc21`, the remaining activity was 97.8%.
For `NC(=O)c1ccc(N(C(N)=O)c2c(F)cccc2F)nc1-c1ccc(F)cc1F`, the remaining activity was 99.9%.
For `CC#CC(=O)Nc1cc2c(Nc3ccc(F)c(Cl)c3)ncnc2cn1`, the remaining activity was 100%.
With `CCCC(=O)Oc1ccc2[nH]c(C(=O)c3cc4ccccc4[nH]3)cc2c1` the remaining activity was 102%.
The remaining activity of `O=C1Cc2c([nH]c3ccc([N+](=O)[O-])cc23)-c2ccccc2N1` is reported as 102%.
For `Cc1cncc2cccc(S(=O)(=O)N3CCCN(C(=O)CN)C[C@@H]3C)c12`, the remaining activity was 96%.
With `O=S(=O)(NCCNC/C=C/c1ccc(Br)cc1)c1cccc2cnccc12` the remaining activity was 78.8%.
The remaining activity of `O=C1NC(=O)C(c2c[nH]c3ccccc23)=C1c1c[nH]c2ccccc12` is reported as 97.9%.
For `Nc1nc(Nc2ccc(S(N)(=O)=O)cc2)nn1C(=O)c1c(F)cccc1F`, the remaining activity was 114%.
`CC(=O)c1ccc(N2CCOCC2)cc1O` has a remaining activity of 105%.
For `N#CC(=C(N)Sc1ccc(N)cc1)c1ccccc1C(F)(F)F`, the remaining activity was 105%.
For `Fc1ccc(-c2nc3n(c2-c2ccncc2)CCS3)cc1`, the remaining activity was 95.8%.
`Nc1ncnc2c1cnn2-c1ccccc1` gave a remaining activity of 92.3%.

A few entries again (block 4):
The remaining activity of `O=C1NC(=O)C(c2c[nH]c3ccccc23)=C1c1c[nH]c2ccccc12` is reported as 97.9%.
The remaining activity of `O=C1Cc2c([nH]c3ccc([N+](=O)[O-])cc23)-c2ccccc2N1` is reported as 102%.
`Cc1cc(Nc2nc(-c3ccccc3)nc3ccccc23)n[nH]1` gave a remaining activity of 104%.
With `CCCC(=O)Oc1ccc2[nH]c(C(=O)c3cc4ccccc4[nH]3)cc2c1` the remaining activity was 102%.
`CC(=O)c1ccc(N2CCOCC2)cc1O` has a remaining activity of 105%.
For `Cc1cncc2cccc(S(=O)(=O)N3CCCN(C(=O)CN)C[C@@H]3C)c12`, the remaining activity was 96%.
`CC[n+]1c(/C=C/N(C)c2ccccc2)n(-c2ccccc2)c2ccc(-c3nc4ccccc4s3)cc21` has a remaining activity of 102%.
For `NC(=O)c1ccc(N(C(N)=O)c2c(F)cccc2F)nc1-c1ccc(F)cc1F`, the remaining activity was 99.9%.
